Published values gathered from unrelated publications.
Each line is one published result; not all experiments were run side by side. “And” joins repeats or separate records; there may be more than shown. ± gives the spread as reported.

CC(=O)Nc1cccc(C(=O)Nc2ccc(Nc3nccc(-c4cccnc4)n3)c(C)c2)c1
reporter activity (AP1 reporter HEK293; AP1 reporter gene, inhibitor; 10 µM, 6 h, compound kept in medium, unit not given, together with: PMA; baseline: PMA alone): 0.582

CC/C(=N\NC(=O)NCc1cccc(O)c1)c1ccc(O)c(C)c1O
log ratio (SK-OV-3; gene expression, microarray, item: DHRS3; 10 µM, 24 h; baseline: DMSO): -2.76

O=C1[C@H]2CCCN2[C@H](c2ccc3c(c2)OCO3)N1c1ccc(Cl)c(Cl)c1 (mixture of isomers)
mutant huntingtin-induced cytotoxicity (PC-12, differentiated; 50 µM, 4 days): decreased

Nc1ncnc2c1ncn2[C@@H]1O[C@H](CO)[C@@H](O)[C@H]1O
log2 fold change (activated human T cells; item: AMP; 30 µM; baseline: DMSO): 0.223 and 0.4 and 0.5

COc1ccc(-n2nc(C(C)=O)s/c2=N\N=C(/C)c2ccc(NC(=O)c3ccc(C)cc3)cc2)cc1
viability (HepG2; 5 µM): 4.22%

Cc1n(Cc2ccc3ccccc3n2)cc[n+]1Cc1ccc2ccccc2c1.[Br-]
TGI (NSCLC cell lines; upper end of range): ≤ 27.6 µM

CNC(=O)c1ccc(N2C(=S)N(c3ccc(C#N)c(C(F)(F)F)c3)C(=O)C2(C)C)cc1F
inhibition (VCaP; cell proliferation, CCK-8; 16000 nM): 41.4%

CCCCc1nc(Cl)c(CO)n1Cc1ccc(-c2ccccc2-c2nn[nH]n2)cc1
log2 fold change (human PBMC; RNA-seq, item: FN1 mRNA; 10 µg/mL, 24 h; baseline: untreated control): -1.84

COCCOCCOCc1n(Cc2ccc3ccccc3n2)c2ccccc2[n+]1Cc1ccc2ccccc2n1
mean growth percentage (NSCLC cell lines; NCI60 one-dose screen; 10 µM): 24.7%

COc1ccccc1NC(=S)N[C@@H](NC(=O)c1cccc(Br)c1)C(Cl)(Cl)Cl
maximum inhibition (MEF with TRE-FLAG-LMNB1; LMNB1 level, high-content screening; 250 µM): 6%

Cc1ccc(CNC(=O)Cn2cc(CSc3nc4ccccc4[nH]3)nn2)cc1
cytotoxicity (HEK293; MTT; 7.81 ppm): 51.1%

C=C[C@@]1(C)CC(=O)[C@]2(O)[C@@]3(C)[C@@H](O)CCC(C)(C)[C@@H]3[C@H](O)[C@H](OC(C)=O)[C@@]2(C)O1
cAMP level difference (PBMC; MSD; 0.0001 µM, unit not given, together with: PGE2; baseline: DMSO): -0.723

O=C(/C=C/C=C/C=C/C1CCCCC1)NC1=C[C@@](O)(/C=C/C=C/C=C/C(=O)NC2=C(O)CCC2=O)[C@@H]2O[C@@H]2C1=O
GI50 (NCI-H1355; cell growth, CellTiter-Glo; 78 h): 28.7 µM

C[C@@H]1O[C@@H](OC[C@H]2O[C@@H](Oc3c(-c4ccc(OCCO)c(OCCO)c4)oc4cc(OCCO)cc(O)c4c3=O)[C@H](O)[C@@H](O)[C@@H]2O)[C@H](O)[C@H](O)[C@H]1O
TEER increase (Caco-2 monolayers; 100 µg/mL, 45 min): 15%

Cc1nn(-c2nc3ccc(Cl)c(Cl)c3[nH]2)c(O)c1C1OC(=O)c2ccccc21 (centres unmarked)
IFNB1 mRNA level (RAW-ISG; RT-qPCR; 10 µM, 312 h, unit not given, together with: HT-DNA; baseline: DMSO): 0.421 and 0.524 and 0.424

Cc1cc(Nc2ncc(Cl)c(Nc3ccccc3S(=O)(=O)C(C)C)n2)c(OC(C)C)cc1C1CCNCC1
log2 fold change (CLB-GE; phosphoproteomics LC-MS/MS, item: HSF1 phosphorylation; 200 nM, 60 min; baseline: untreated): -4.31

COc1cc(/C=C/C(=O)N2CCC=CC2=O)cc(OC)c1OC
mRNA level (MDA-MB-468; quantitative RT-PCR, item: Bcl-2; 30 µM, 8 h; baseline: untreated): 80.4 ± 2.1%

C[C@H]1Oc2cc(cnc2N)-c2c(nn(C)c2C#N)CN(C)C(=O)c2ccc(F)cc21
Emax (Ba/F3 EML4-ALK v3; cell viability): 99.9%

CC#CC(=O)N1CCC[C@H]1c1nc(-c2ccc(C(=O)Nc3ccccn3)cc2)c2c(N)nccn12
maximum inhibition (TMD8 wild-type; calcium flux, FLIPR; 4 h preincubation, together with: anti-IgM): 75.8%

CCOc1cc([C@@H](CS(C)(=O)=O)N2C(=O)c3cccc(NC(C)=O)c3C2=O)ccc1OC
cAMP level difference (PBMC; MSD; 0.01 µM, unit not given, together with: PGE2; baseline: DMSO): -2.55

CCCCCCOC(=O)[C@]1(O)C[C@@H]2O[C@@]1(C)n1c3ccccc3c3c4c(c5c6ccccc6n2c5c31)C(=O)NC4
relative cell number (SK-OV-3; ATP; 10 µM, 4 days, 3D U-bottom low-attachment; baseline: untreated): 84.7%

COCCOCCOCc1n(Cc2ccc3ccccc3n2)c2ccccc2[n+]1Cc1ccc2ccccc2c1
mean growth percentage (NSCLC cell lines; NCI60 one-dose screen; 10 µM): 12.4%

CC(C)(c1ccc(O)cc1)c1ccc(O)cc1
S phase cells (HepG2 spheroids; Hoechst flow cytometry; 10 µM, 96 h): 12.2 ± 3.68%

c1ccc2[nH]ccc2c1
mRNA level, LS mean (HCT-8; RNA-seq, item: TCP11L2; concentration not given): 6.43 counts per million

CC1CC(c2ccccc2)n2nc(N)nc2N1 (centres unmarked)
maximum inhibition (MEF with TRE-FLAG-LMNB1; LMNB1 level, high-content screening; 250 µM): 23%

CCn1cc(-c2cc(Cn3ccnc3)cc3c2CCN([C@H](c2cc(OC)ccn2)C2CC2)C3=O)c(C(F)(F)F)n1
EC50 (SCC-25; cell growth, inhibitor; 120 h): > 30 µM

Cn1cc(-c2ccc(-c3cncc(Cl)c3N3CCC4(CCNC4=O)CC3)cc2)cn1
log2 fold change (COLO 205; gene expression, microarray, item: POU2AF1 mRNA; concentration not given, 2 h; baseline: untreated cells): -2.86

Clc1nc(NCc2ccco2)c2[nH]cnc2n1
ΔPSI (FD iPSC-derived cardiomyocytes; alternative splicing, RNA-seq, item: DROSHA exon chr5:31521122-31521215; unit not given; baseline: DMSO minus compound): 0.242

C=CC1=C(C)c2cc3[n-]c(cc4nc(cc5[n-]c(cc1n2)c(C)c5C=C)C(C)=C4CCC(=O)O)c(CCC(=O)O)c3C.[Zn+2]
fold change (SH-SY5Y; RNA-seq, item: FLT1 mRNA; 5 µM, 5 h; baseline: untreated cells): 3.22

c1cnc2c(c1)ccc1cccnc12
TNF-α mRNA level (HEK293T; 25 µg/mL; baseline: albendazole): decreased

COc1cc(OC)c2c(=O)[nH]c(-c3cc(C)c(OCCO)c(C)c3)nc2c1
log2 fold change (murine AML cells; BRD4 chromatin occupancy, ChIP-seq, item: Irf2bp2 locus; concentration not given; baseline: DMSO): 0.06

O=c1cc(-c2ccc(O)c(O)c2)oc2cc(O)cc(O)c12
protein level (Caco-2 monolayers; Western blot, item: occludin, claudin-1, ZO-1; concentration not given): decreased

Nc1cccc2c1C(=O)N(C1CCC(=O)NC1=O)C2=O (centres unmarked)
surface marker level (RPMI-8226; flow cytometry, item: CD6; concentration not given; baseline: comparator compound alone): 161%

C=CC(=O)N1CCC([C@@H]2CCNc3c(C(N)=O)c(-c4ccc(Oc5ccccc5)cc4)nn32)CC1
maximum inhibition (TMD8 wild-type; calcium flux, FLIPR; 1 h preincubation, together with: anti-IgM): 89.4%

CC(C)C(=O)Nc1n[nH]c2cc(-c3cccc(NS(=O)(=O)C4CC4)c3)ccc12
LRP6-positive cells (HEK293T; flow cytometry, item: surface LRP6; concentration not given, 8 h, together with: WNT3A): 47.8% and 30.9%

CC(C)NCC(O)c1ccc(O)c(O)c1 (centres unmarked)
sarcomere length (mouse ventricular cardiomyocytes; dose not given, 0.091 s): 1.75 µm

CCCCN1C[C@H](O)[C@@H](O)[C@@H](O)[C@H]1CO
IC50 (sample BB patient fibroblasts; Gb3 level lowering, LC-MS/MS, item: Gb3 d18:1/20:0; 216 h): 13.7 µM

Cn1cc(-n2cnc3c(NCc4nc5cc(Cl)c(Cl)cc5[nH]4)nc(N4CCOCC4)nc32)cn1
mRNA level (MDA-MB-231; qRT-PCR, item: SMARCC2; 50 nM, 6 h, unit not given; baseline: untreated): 0.743

CCn1cc(-c2cc(Cn3ccoc3=N)cc3c2CCN([C@@H](C)c2cc(OC)ccn2)C3=O)c(C(F)(F)F)n1
EC50 (HEC-50B; cell growth, inhibitor; 120 h): 0.17 µM

CCCc1n(Cc2ccc3ccccc3n2)cc[n+]1Cc1ccc2ccccc2c1
growth (NSCLC cell lines; NCI60 one-dose; 10 µM, average over cell lines): 7.64 to 16%

COc1cnc2cccc(N3CCc4c(cc(Cn5ccnc5C)cc4-c4cn(C)nc4C(F)(F)F)C3=O)c2c1
EC50 (G-401; cell growth, inhibitor; 120 h): 0.602 µM

Cc1c(C)c2c(c(C)c1O)CCC(C)(COc1ccc(CC3SC(=O)NC3=O)cc1)O2 (centres unmarked)
IC50 (hepatocytes, iPSC-derived, line L1; cell viability, RealTime-Glo MT; 72 h, differentiation day 23): 8 µM

O=c1[nH]nc(OCCCc2ccc(Cl)cc2)c(NCc2cccnc2)c1Br
log2 fold change (HEK293T; RNA-seq, item: HSPA1A mRNA; 10 µM, 6 h; baseline: vehicle): -0.572

CN(C)c1ccccc1CN1CCCN(Cc2ccccc2N(C)C)C1c1ccncc1
inhibition (Sufu-/- mouse embryonic fibroblasts; qRT-PCR, item: Gli1 mRNA; 10 µM; baseline: DMSO): ~50%

Cn1cc(Nc2nccc(-c3ccc4c(c3)CN(C3COC3)CC[C@H]4NC(=O)c3cn(C(C)(C)C)nn3)n2)cn1
pathway activation z-score (mouse splenic B cells; item: p53 signalling; 30 mg/kg, IgD-activated in vivo; baseline: vehicle, direction not given): -0.535

CN(C)C(=S)SSC(=S)N(C)C
AC50 (differentiated LUHMES MT1G-HiBiT neurons; item: MT1G; 24 h): 0.023 µM

CN1C(=O)C(Cc2c[nH]c3ccccc23)NC1=S (centres unmarked)
necroptosis (L929; ATP viability; concentration not given, together with: poly(I:C) and zVAD): no effect

Excerpt of the above:
Cn1cc(-c2ccc(-c3cncc(Cl)c3N3CCC4(CCNC4=O)CC3)cc2)cn1
log2 fold change (COLO 205; gene expression, microarray, item: POU2AF1 mRNA; concentration not given, 2 h; baseline: untreated cells): -2.86

CC(C)NCC(O)c1ccc(O)c(O)c1 (centres unmarked)
sarcomere length (mouse ventricular cardiomyocytes; dose not given, 0.091 s): 1.75 µm

CCn1cc(-c2cc(Cn3ccoc3=N)cc3c2CCN([C@@H](C)c2cc(OC)ccn2)C3=O)c(C(F)(F)F)n1
EC50 (HEC-50B; cell growth, inhibitor; 120 h): 0.17 µM

O=C(/C=C/C=C/C=C/C1CCCCC1)NC1=C[C@@](O)(/C=C/C=C/C=C/C(=O)NC2=C(O)CCC2=O)[C@@H]2O[C@@H]2C1=O
GI50 (NCI-H1355; cell growth, CellTiter-Glo; 78 h): 28.7 µM

C[C@@H]1O[C@@H](OC[C@H]2O[C@@H](Oc3c(-c4ccc(OCCO)c(OCCO)c4)oc4cc(OCCO)cc(O)c4c3=O)[C@H](O)[C@@H](O)[C@@H]2O)[C@H](O)[C@H](O)[C@H]1O
TEER increase (Caco-2 monolayers; 100 µg/mL, 45 min): 15%

O=C1[C@H]2CCCN2[C@H](c2ccc3c(c2)OCO3)N1c1ccc(Cl)c(Cl)c1 (mixture of isomers)
mutant huntingtin-induced cytotoxicity (PC-12, differentiated; 50 µM, 4 days): decreased

COc1cnc2cccc(N3CCc4c(cc(Cn5ccnc5C)cc4-c4cn(C)nc4C(F)(F)F)C3=O)c2c1
EC50 (G-401; cell growth, inhibitor; 120 h): 0.602 µM
